Published values pooled from the literature.
“And” joins repeats or separate records; there may be more than shown. Numbers after ± are the reported error.

With `COc1ccc(COc2ccc(Cc3cnc(N)nc3N)cc2OC)cc1` the ATP level was 102% (hiPSC cardiomyocytes; CellTiter-Glo; concentration not given, 24 h; baseline: vehicle).
The inhibition of `C[C@H]1O[C@@H](O[C@H]2[C@@H](O)C[C@H](O[C@H]3[C@@H](O)C[C@H](O[C@H]4CC[C@@]5(C)[C@H](CC[C@@H]6[C@@H]5C[C@@H](O)[C@]5(C)[C@@H](C7=CC(=O)OC7)CC[C@]65O)C4)O[C@@H]3C)O[C@@H]2C)C[C@H](O)[C@@H]1O` is reported as 93.9% (BT-12; cell viability, MTT; 10 µM, 72 h).
The inhibition of `COc1cc2nccc(Oc3ccc(NC(=S)NC(=O)c4ccccc4C)cc3)c2cc1OC` is reported as 5% (HeLa expressing Ub(G76V)-GFP; Ub(G76V)-GFP degradation, cycloheximide chase; 12 µM).
For `COc1cnc2cccc(N3CCc4c(cc(Cn5ccnc5C)cc4-c4cn(C)nc4C(F)(F)F)C3=O)c2c1`, the EC50 was greater than 30 µM (ML1; cell growth, inhibitor; 120 h).
`Cc1ccc(NC(=O)CCCCCC(=O)Nc2ccccc2N)cc1` has a viability of 94.6% (HBL-1; 1 µM, 120 h).
For `CCS(=O)(=O)c1nc(C2CC2)cc(C(F)(F)F)n1`, “cells with nuclear RelA” read 66.5% and 77.7% (HeLa Kyoto; RelA nuclear import, high content imaging; 0.02 µM, 3 h, added: 1 µM PMA, 60 min).
`Cc1cc(Nc2nc(-c3ccccc3)nc3ccccc23)n[nH]1` gave an inhibition of 19% (HeLa expressing Ub(G76V)-GFP; Ub(G76V)-GFP degradation, cycloheximide chase; 12 µM).
Under “cells with nuclear RelA”, `CC(Nc1nc(N2CCCC2)nc2ccccc12)c1ccccc1` (stereo not shown) is recorded as 91.1% and 82.1% (HeLa Kyoto; RelA nuclear import, high content imaging; 0.5 µM, 3 h, added: 1 µM PMA, 60 min).
`CC1(C)CC[C@]2(C(=O)O)CC[C@]3(C)C(=CC[C@@H]4[C@@]5(C)C[C@@H](O)[C@H](OC(=O)/C=C/c6ccc(O)cc6)C(C)(C)[C@@H]5CC[C@]43C)[C@@H]2C1` (relative stereo) — result for NICD production: “no effect” (N2a expressing NotchΔE-myc; gamma-secretase Notch cleavage, Western blot; concentration not given, 24 h).
`CC#CC(=O)Nc1cc2c(Nc3ccc(F)c(Cl)c3)ncnc2cn1` has an inhibition of 17% (HeLa expressing Ub(G76V)-GFP; Ub(G76V)-GFP degradation, inhibitor, cycloheximide chase; 12 µM).
Under “relative colony forming efficiency”, `Cc1cnc2ccc3c(c2n1)N1CCC(O)N=C1N3C` (stereo not shown) is recorded as 0% (BALB/c 3T3; 100 µM; baseline: solvent control).
For `O=C(O)CCNc1cc(N2CCc3ccccc3CC2)nc(-c2ccccn2)n1`, the viability was 101% (HBL-1; 1 µM, 120 h).
Under “G2/M phase cells”, `COc1ccc(NC(=S)N/N=C/c2cccc3cc4ccccc4nc23)cc1` is recorded as 11.1 ± 1.5% (HeLa; PI flow cytometry; IC25, 48 h).
The inhibition of `Nc1nc(Nc2ccc(S(N)(=O)=O)cc2)nn1C(=S)Nc1c(F)cccc1F` is reported as -21% (HeLa expressing Ub(G76V)-GFP; Ub(G76V)-GFP degradation, cycloheximide chase; 12 µM).
`CC/C(=N\NC(=O)NCc1cccc(O)c1)c1ccc(O)c(C)c1O`: “log ratio of mRNA level” 4.46 (SK-OV-3; microarray, measured: CTGF; 3D culture in gellan gum; 10 µM, 24 h; baseline: DMSO).
With `C#Cc1cccc(Nc2ncnc3cc(OC)c(OCCCCCCC(=O)NO)cc23)c1` the viability was 6.95% (HBL-1; 1 µM, 120 h).
`c1ccc(-c2cnc(Nc3ccc(OCCN4CCCC4)cc3)s2)cc1` has an inhibition of 13% (HeLa expressing Ub(G76V)-GFP; Ub(G76V)-GFP degradation, inhibitor, cycloheximide chase; 12 µM).
`C=CCn1c(=O)c2cnc(Nc3ccc(N4CCN(C)CC4)cc3)nc2n1-c1ccc2c(n1)[C@@](O)(CC)CC2` — result for “EdU-negative S phase cells”: 9.41% (Kuramochi; flow cytometry; concentration not given).
With `O=C(/C=C/C=C/C=C/C1CCCCC1)NC1=C[C@@](O)(/C=C/C=C/C=C/C(=O)NC2=C(O)CCC2=O)[C@@H]2O[C@@H]2C1=O` the GI50 was 14.5 µM (Huh-7; cell growth, CellTiter-Glo; 78 h).
For `CC/C(=N\NC(=O)C(C)Nc1ccccc1)c1ccc(O)c(C)c1O` (stereo not shown), the protein level was 0.75 ± 0.45 (SK-OV-3; Western blot, measured: LATS; 10 µM, 3 h, 3D gellan gum culture, unit not given; baseline: β-actin).
`COc1cc(/C=C/C(=O)N2CCC=CC2=O)cc(OC)c1OC` gave a mRNA level of 99.6 ± 12.2% (MDA-MB-468; qRT-PCR, measured: GPX4; 30 µM, 6 h; baseline: time zero).
For `C=CC(=O)N1CCCN(C(=O)c2cc(Sc3cnc(NC(=O)C4CC4)s3)c(C)cc2OC)C[C@H]1C`, “total cell number” read “decreased” (human primary T cells; 10 µM, six days, added: TCR stimulation).
`COC[C@H](NC(=O)c1cnc(C)s1)C(=O)N[C@@H](COC)C(=O)N[C@@H](Cc1ccccc1)C(=O)[C@@]1(C)CO1` has an inhibition of 95% (BT-12; cell viability, MTT; 10 µM, 72 h).
`C=Cc1c2[n-]c(c1C)/C=c1\[n-]/c(c(C)c1C=C)=C\c1[n-]c(c(CCC(=O)O)c1C)/C=c1\[n-]c(c(C)c1CCC(=O)O)=C2.[Sn+4]` has a fold change of 1.63 (SH-SY5Y; RNA-seq, measured: VCL mRNA; 5 µM, 5 h; baseline: untreated cells).
`Clc1ccc(-c2csc(NN=C3CCCC3)n2)cc1` gave a viability of 103% (HBL-1; 0.1 µM, 120 h).
`Cc1cc(-c2ccccc2)n(-c2nc(-c3ccc(Cl)cc3)c3c(NC(=O)c4ccccc4)nnc-3[nH]2)n1` gave a cell growth of 70.5% (Hs-578T; SRB; 10 µM, NCI60 single-dose screen; baseline: untreated).
`COc1cc2c(c(OC)c1OC)-c1ccc(OC)c(=O)cc1[C@@H](NC(C)=O)CC2` has an inhibition of 88.9% (BT-12; cell viability, MTT; 10 µM, 72 h).
With `c1ccc(-c2[nH]ncc2-c2ccnc3ccccc23)nc1` the inhibition was 26% (HeLa expressing Ub(G76V)-GFP; Ub(G76V)-GFP degradation, cycloheximide chase; 12 µM).
For `O=C(C[C@@H](C(F)F)n1ccc(F)n1)N1CCC(O)(Cn2cnc3c(cnn3-c3ccc(F)cc3)c2=O)CC1`, “viable cells (annexin V-/PI-)” read 87.2% and 83.2% and 84.8% (CHP-212 resistant cells (pooled); annexin V-PI flow cytometry; 0.3 µM, 48 h).
For `CC(C)C[C@@H](C=O)NC(=O)[C@H](CC(C)C)NC(=O)[C@H](CC(C)C)NC(=O)OCc1ccccc1`, the inhibition was 81.5% (BT-12; cell viability, MTT; 10 µM, 72 h).
`Cn1cc(Nc2nccc(-c3ccc4c(c3)CN(C3COC3)CC[C@H]4NC(=O)c3cn(C(C)(C)C)nn3)n2)cn1`: “pathway activation z-score” 1.26 (mouse splenic B cells; measured: IL-1 signalling; 30 mg/kg, IgD-activated in vivo; baseline: vehicle, direction not given).
With `CN(C)c1ccc(/C=C2\C(=O)Nc3ccccc32)cc1` the inhibition was 29% (HeLa expressing Ub(G76V)-GFP; Ub(G76V)-GFP degradation, inhibitor, cycloheximide chase; 12 µM).
The fold change of `CCCCc1oc2ccc(NS(C)(=O)=O)cc2c1C(=O)c1ccc(OCCCN(CCCC)CCCC)cc1` is reported as 5.4 fold (human embryonic stem cell aggregates; mRNA level, microarray, measured: EYA1; 0.5 µM, 120 h; baseline: untreated, down-regulated).
The ΔPSI of `Clc1nc(NCc2ccco2)c2[nH]cnc2n1` is reported as 0.211 (iPSC-derived cardiomyocytes; RNA-seq, measured: chr2 exon ending 89580635; unit not given; baseline: DMSO minus compound).
`Cc1ccc(C(=O)Nc2ccc(S(=O)(=O)O)c3cc(S(=O)(=O)O)cc(S(=O)(=O)O)c23)cc1NC(=O)c1cccc(NC(=O)Nc2cccc(C(=O)Nc3cc(C(=O)Nc4ccc(S(=O)(=O)O)c5cc(S(=O)(=O)O)cc(S(=O)(=O)O)c45)ccc3C)c2)c1` has a viability of 104% (HBL-1; 1 µM, 120 h).
For `CC1(C)CN(CCCCC(=O)N[C@@H](CCC(=O)O)C(=O)N[C@@H](CCC(=O)O)C(=O)N[C@H](CCCCNC(=O)CCCCCCC(=O)NCCCC[C@H](NC(=O)N[C@@H](CCC(=O)O)C(=O)O)C(=O)O)C(=O)O)CC[N]2CC(C)(C)[S][Tc]2(=[O])[S]1` (stereo partly shown) [technetium-99m labelled], the internalized activity was 2.46 ± 0.79 %AD/mg protein (LNCaP; 25 nM, 1 h, 37 °C).
With `Nc1ncnc2c1ncn2[C@@H]1C=C(CO)[C@@H](O)[C@H]1O` the viability was 51.3% (HBL-1; 1 µM, 120 h).
With `CN(C)C/C=C/C(=O)Nc1cc2c(Nc3ccc(F)c(Cl)c3)ncnc2cc1O[C@H]1CCOC1` the inhibition was 85.8% (BT-12; cell viability, MTT; 10 µM, 72 h).
Under “normalized enrichment score”, `O=c1[nH]nc(OCCCc2ccc(Cl)cc2)c(NCc2cccnc2)c1Br` is recorded as -0.977 (HEK-293T; RNA-seq GSEA, measured: HALLMARK_COMPLEMENT; concentration not given; direction not given).
For `Cc1cn([C@H]2C[C@H](O)[C@@H](CO)O2)c(=O)nc1N`, the viability was 125% (HBL-1; 0.1 µM, 120 h).
`CCn1cc(-c2cc(Cn3ccoc3=N)cc3c2CCN([C@@H](C)c2cc(OC)ccn2)C3=O)c(C(F)(F)F)n1` has an EC50 of 1.03 µM (NCI-H2087; cell growth, inhibitor; 120 h).
With `COc1cc2c(NC3CCN(C(C)C)CC3)nc(N3CCC(F)(F)CC3)nc2cc1OCCCN1CCCC1` the viability was 120% (HBL-1; 0.5 µM, 120 h).
Under “Bliss synergy score”, `COc1cc2ncnc(Nc3ccc(Oc4ccccc4)cc3C)c2cc1OC.O=C(O)C(F)(F)F` is recorded as -121% (NCI-H2087 (BRAF L597V); cell viability; concentration not given, 72 h, added: trametinib; direction not given).
For `NC(=O)NOCCCCCCCCCCCCCCCCCCCC[P+](c1ccccc1)(c1ccccc1)c1ccccc1.O=C([O-])C(F)(F)F`, “concentration at maximal effect” read 0.3 µM (mouse CD4 T cells, reporter; IFNγ-YFP expression, flow cytometry; 144 h).
`Cn1cc(-c2ccc(-c3cncc(Cl)c3N3CCC4(CCNC4=O)CC3)cc2)cn1` — result for “log2 fold change”: 3.47 (COLO 205; gene expression, microarray, measured: SLC2A1 mRNA; concentration not given, 2 h; baseline: untreated cells).
`CCn1cc(-c2cc(Cn3ccnc3)cc3c2CCN([C@H](c2cc(OC)ccn2)C2CC2)C3=O)c(C(F)(F)F)n1` has an EC50 of 0.0133 µM (SU-DHL-5; cell growth, inhibitor; 120 h).

Some of these lines once more:
For `NC(=O)NOCCCCCCCCCCCCCCCCCCCC[P+](c1ccccc1)(c1ccccc1)c1ccccc1.O=C([O-])C(F)(F)F`, “concentration at maximal effect” read 0.3 µM (mouse CD4 T cells, reporter; IFNγ-YFP expression, flow cytometry; 144 h).
`Cn1cc(-c2ccc(-c3cncc(Cl)c3N3CCC4(CCNC4=O)CC3)cc2)cn1` — result for “log2 fold change”: 3.47 (COLO 205; gene expression, microarray, measured: SLC2A1 mRNA; concentration not given, 2 h; baseline: untreated cells).
`CC/C(=N\NC(=O)NCc1cccc(O)c1)c1ccc(O)c(C)c1O`: “log ratio of mRNA level” 4.46 (SK-OV-3; microarray, measured: CTGF; 3D culture in gellan gum; 10 µM, 24 h; baseline: DMSO).
`Cc1cc(Nc2nc(-c3ccccc3)nc3ccccc23)n[nH]1` gave an inhibition of 19% (HeLa expressing Ub(G76V)-GFP; Ub(G76V)-GFP degradation, cycloheximide chase; 12 µM).
`c1ccc(-c2cnc(Nc3ccc(OCCN4CCCC4)cc3)s2)cc1` has an inhibition of 13% (HeLa expressing Ub(G76V)-GFP; Ub(G76V)-GFP degradation, inhibitor, cycloheximide chase; 12 µM).
`COc1cc(/C=C/C(=O)N2CCC=CC2=O)cc(OC)c1OC` gave a mRNA level of 99.6 ± 12.2% (MDA-MB-468; qRT-PCR, measured: GPX4; 30 µM, 6 h; baseline: time zero).
The ΔPSI of `Clc1nc(NCc2ccco2)c2[nH]cnc2n1` is reported as 0.211 (iPSC-derived cardiomyocytes; RNA-seq, measured: chr2 exon ending 89580635; unit not given; baseline: DMSO minus compound).
